Experimental data gathered from unrelated publications.
Protocols differ between the studies behind these lines. Values joined by “and” are separate records of one study, mostly repeats; a detail may differ. ± marks the error that the study gave.
UCHL1: Ubiquitin carboxyl-terminal hydrolase isozyme L1 (UCHL1, Homo sapiens, UniProt P09936)
UniProt P09936, sequence (whole entry, looked up): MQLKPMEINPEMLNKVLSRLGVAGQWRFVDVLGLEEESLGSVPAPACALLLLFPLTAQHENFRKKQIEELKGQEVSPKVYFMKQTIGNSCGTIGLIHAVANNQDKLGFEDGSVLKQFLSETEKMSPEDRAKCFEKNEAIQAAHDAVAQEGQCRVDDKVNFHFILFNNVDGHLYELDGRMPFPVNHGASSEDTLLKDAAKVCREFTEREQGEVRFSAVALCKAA

| SMILES | tested on | test | test system | setting | how to read | measurement | value |
| --- | --- | --- | --- | --- | --- | --- | --- |
| O=C(O)c1cccnc1Nc1cccc(C(F)(F)F)c1 | MDCK-LE, low efflux | passive permeability | – | apical to basolateral | – | Papp | 46 ×10⁻⁶ cm/s |
| C/C=C/C(=O)Nc1ccc(OS(=O)(=O)C2CC3OC2C(c2ccc(O)cc2)=C3c2ccc(O)cc2)cc1 (stereo not drawn) | MCF-10A | cell viability | – | 72 (unit not given) | – | IC50 | 27.3 ± 2.94 µM |
| CC/C(=C(/c1ccc(OCCNC)cc1)c1ccc(B2OC(C)(C)C(C)(C)O2)cc1)c1ccccc1 | MCF7 | – | – | 1 µM, 4 h | – | conversion to endoxifen | 60% |
| CCOC(=O)c1c(C)nc2ccc(-c3ccc(F)cc3)cc2c1O | MCF-10A | MTT | – | up to 100 µM | – | cytotoxicity | not toxic |
| Cc1ccc(CNC(=O)Cn2cc(CSc3nc4ccccc4[nH]3)nn2)cc1 | HEK293 | MTT | – | 15.6 ppm | – | viability | 28.4% |
| CC(C)=CC(=O)Nc1ccc(C2=C(c3ccc(O)cc3)C3CC(S(=O)(=O)Oc4ccc(O)cc4)C2O3)cc1 (stereo not drawn) | MCF-10A | cell viability | – | 72 (unit not given) | – | IC50 | 13.6 ± 0.35 µM |
| Oc1c(I)cc(I)c2cccnc12 | pigeon embryo fibroblasts | – | – | – | – | CC50 | 40 µM |
| Cc1noc(C)c1Cn1cc(N2C(=O)CN(Cc3cccc(O)c3)C2=O)cn1 | human blood lymphocytes | – | – | 600 µg/mL, 21 h | – | aberrant cells without gaps | 0% |
| Cc1ncc([N+](=O)[O-])n1CCO | pigeon embryo fibroblasts | – | – | – | – | CC50 | ~200 µM |
| COc1ncnc(C2CC2)c1-c1ncc2cnn(Cc3ccc(-c4nc(C(F)(F)F)cn4C(C)C)cc3)c2n1 | CHP-212 parental | SRB | – | 6.25 µM | – | viability | 87.1% and 83.2% |
| CCN(c1ccc(OC)cc1)S(=O)(=O)C1CC2OC1C(c1ccc(O)cc1)=C2c1ccc(NC(=O)C=C(C)C)cc1 (stereo not drawn) | MCF-10A | cell viability | – | 72 (unit not given) | – | IC50 | 20.1 ± 1.06 µM |
| CCCCCCC[P+](/C=C(/c1ccccc1)c1cc(Cl)ccc1O)(CCCCCCC)CCCCCCC.[Cl-] | human red blood cells | – | PBS | 1 h, 37 °C | – | HC50 | 34 µM |
| Cc1n[nH]c(C)c1C=C(C#N)C(=O)Nc1cc(Cl)cc(Cl)c1 | UCHL1 | covalent, intact protein LC-MS | – | 12.5 µM | – | labelling | 19% |
| CCC[P+](/C=C(/c1ccccc1)c1cc(Cl)ccc1O)(CCC)CCC.[Cl-] | human red blood cells | – | PBS | 1 h, 37 °C | – | HC50 | 90 µM |
| CC(C)C[C@@H](C=O)NC(=O)[C@H](CC(C)C)NC(=O)[C@H](CC(C)C)NC(=O)OCc1ccccc1 | pigeon embryo fibroblasts | – | – | – | – | CC50 | 35 µM |
| COc1cccc2c1C(=O)c1c(O)c3c(c(O)c1C2=O)C[C@@](O)(C(=O)CO)C[C@@H]3O[C@H]1C[C@H](N)[C@H](O)[C@H](C)O1 | CHP-212 parental | SRB | – | 0.3704 µM | – | viability | 14% and 17.7% |
| C#CC(=O)Nc1ccc(OS(=O)(=O)C2CC3OC2C(c2ccc(O)cc2)=C3c2ccc(O)cc2)cc1 (stereo not drawn) | MCF-10A | cell viability | – | 72 (unit not given) | – | IC50 | 39.2 ± 2.67 µM |
| Nc1nc2nn[nH]c2c(=O)[nH]1 | Trypanosoma cruzi | reporter translation, Renilla luciferase mRNA translation | cell-free extract | 40 µM | reference: DMSO | inhibition | 11.1% |
| CC(=O)O[C@H]1C(=O)[C@@]2(C)[C@H]([C@H](OC(=O)c3ccccc3)[C@]3(O)C[C@H](OC(=O)[C@H](O)[C@@H](NC(=O)c4ccccc4)c4ccccc4)C(C)=C1C3(C)C)[C@]1(OC(C)=O)CO[C@@H]1C[C@@H]2O | CHP-212 parental | SRB | – | 0.1235 µM | – | viability | 16.7% and 19.2% |
| C=CC(=O)Nc1ccc(C2=C(c3ccc(O)cc3)C3OC2CC3S(=O)(=O)N(CC(F)(F)F)c2ccc(O)cc2)cc1 (stereo not drawn) | MCF-10A | cell viability | – | 72 (unit not given) | – | IC50 | 20.7 ± 0.88 µM |
| COc1cc2ncnc(Nc3ccc(Oc4ccccc4)c(C)c3C)c2cc1OC.Cl | LoVo (KRAS G13D) | resazurin | – | 3 µM, 72 h, added: trametinib 0 nM | reference: DMSO | viability fraction | 0.704 |
| CC(=O)c1c(O)c(C)c(O)c2c1OC1=CC(=O)C(C(C)=O)C(=O)C12C (stereo not drawn) | pigeon embryo fibroblasts | – | – | – | – | CC50 | 45 µM |
| O=C(C[C@@H](C(F)F)n1ccc(F)n1)N1CCC(O)(Cn2cnc3c(cnn3-c3ccc(F)cc3)c2=O)CC1 | CHP-212 parental | SRB | – | 0.08231 µM | – | viability | 44.6% and 50.6% |
| CN1C[C@@H]2C[C@H]1CN2c1cc2c(cc1F)c(=O)c(C(=O)O)cn2C1CC1 | MDCK-II parental | basolateral-to-apical transport, transepithelial transport | HBSS with HEPES | 10 µM, 4 h | – | percent transported | 19.4 ± 3.45% |

| SMILES | tested on | test | test system | setting | how to read | measurement | value |
| --- | --- | --- | --- | --- | --- | --- | --- |
| CC(C)=CC(=O)Nc1ccc(C2=C(c3ccc(O)cc3)C3OC2CC3S(=O)(=O)N(CC(F)(F)F)c2cccc(O)c2)cc1 (stereo not drawn) | MCF-10A | cell viability | – | 72 (unit not given) | – | IC50 | 18 ± 1.48 µM |
| COC[C@@H](CC(C)C)NC(=O)c1ccc(C)c(C)c1 | primary human lymphocytes | – | – | 322 µg/mL, 4 (unit not given), with S9 | – | cells with structural aberrations | 0.5% |
| CC(=Cc1ccccc1)C=C(C#N)C(=O)Nc1ccc2c(c1)OCCO2 | UCHL1 | covalent, intact protein LC-MS | – | 12.5 µM | – | labelling | 14.3% |
| Cc1nn(-c2nc3c(F)cc(F)cc3s2)c(O)c1C(c1ccc(C(F)(F)F)cc1)c1c(C)nn(-c2nc3c(F)cc(F)cc3s2)c1O | RAW-ISG (mouse) | cell viability, CCK-8 | – | 24 h | – | CC50 | 56.8 µM |
| CCCCC[P+](/C=C(/c1ccccc1)c1cc(Cl)ccc1OC)(CCCCC)CCCCC.[I-] | human red blood cells | – | PBS | 1 h, 37 °C | – | HC50 | 25 µM |
| CC(C)c1nc(CN(C)C(=O)N[C@H](C(=O)N[C@H](CC[C@H](Cc2ccccc2)NC(=O)OCc2cncs2)Cc2ccccc2)C(C)C)cs1 | HEK293T ΔE | cytotoxicity, measured: cell count | – | – | reference: vehicle | EC50 | 66.2 µM |
| C#Cc1cccc(Nc2ncnc3cc(OCCOC)c(OCCOC)cc23)c1 | HPrEC normal prostate epithelial cells | MTT | – | 1.6 µg/mL, 2% serum | – | viability | 69.2% |
| CCOC(=O)c1c(C)nc2ccc(-c3cccc(F)c3)cc2c1O | MCF-10A | MTT | – | up to 100 µM | – | cytotoxicity | not toxic |
| CC/C(=C(\c1ccc(O)cc1)c1ccc(OCCN(C)C)cc1)c1ccccc1 | MCF-10A | cell viability | – | 72 (unit not given) | – | IC50 | 21.5 ± 2.74 µM |
| Cc1cc(C(=O)NC(C)(C)COc2cccc3c2C(N)=NS(=O)(=O)N3)cc(C)n1 | human peripheral blood lymphocytes | CBPI, preliminary test | – | 600 µg/mL, 4 h, added: rat liver S9 | reference: vehicle control | cytotoxicity | 10% |
| CO[C@@H]1[C@H](OC(=O)/C=C/C=C/C=C/C=C/C(=O)O)CC[C@]2(CO2)[C@H]1[C@@]1(C)O[C@@H]1CC=C(C)C | pigeon embryo fibroblasts | – | – | – | – | CC50 | ~200 µM |
| CCN(Cc1ccc(C#CCCO)cc1)CC1CCCN(CCc2cccc(F)c2)C1 (stereo not drawn) | Trypanosoma cruzi | reporter translation, Renilla luciferase mRNA translation | cell-free extract | 40 µM | reference: DMSO | inhibition | -15.9% |
| CCCCCC[P+](/C=C(/c1ccccc1)c1cc(Cl)ccc1OC)(CCCCCC)CCCCCC.[I-] | human red blood cells | – | PBS | 1 h, 37 °C | – | HC50 | 8 µM |
| COc1cccc2c1C(=O)c1c(O)c3c(c(O)c1C2=O)C[C@@](O)(C(=O)CO)C[C@@H]3O[C@H]1C[C@H](N)[C@H](O)[C@H](C)O1 | MCF-10A | – | – | 50 µM, 48 (unit not given) | reference: negative control | cytotoxicity | 0.5 ± 0.3% |
| COC(=O)N[C@H](C(=O)N[C@@H](Cc1ccccc1)[C@@H](O)CN(Cc1ccc(-c2ccccn2)cc1)NC(=O)[C@@H](NC(=O)OC)C(C)(C)C)C(C)(C)C | HEK293T tetracycline-induced EGFP-ΔE | cytotoxicity | – | – | reference: vehicle | EC50 | 53.3 µM |
| O=c1[nH]cc(F)c(=O)[nH]1 | MCF7 | CCK-8 | – | 50 µM, 72 (unit not given) | reference: untreated control | viability | 90.1 ± 1.04% |
| CC(C)(C)NC(=O)[C@@H]1C[C@@H]2CCCC[C@@H]2CN1C[C@@H](O)[C@H](Cc1ccccc1)NC(=O)[C@H](CC(N)=O)NC(=O)c1ccc2ccccc2n1 | HEK293T tetracycline-induced EGFP-ΔE | cytotoxicity | – | – | reference: vehicle | EC50 | 206 µM |
| CC(=NNC(=O)COc1ccc2c(C)c(Cc3ccccc3)c(=O)oc2c1C)c1ccc(Br)cc1 | HPrEC normal prostate epithelial cells | MTT | – | 0.2 µg/mL, 2% serum | – | viability | 93.3% |
| C[C@]12CC[C@@H]3c4ccc(O)cc4C[C@@H](CCCCCCCCC[S+]([O-])CCCC(F)(F)C(F)(F)F)[C@H]3[C@@H]1CC[C@@H]2O (stereo partly drawn) | MCF7 | CCK-8 | – | 20 nM | reference: untreated | viability | 61.1% and 64.1% and 58.3% |
| C/C=C/C(=O)Nc1ccc(C2=C(c3ccc(O)cc3)C3OC2CC3S(=O)(=O)N(CC(F)(F)F)c2ccc(O)cc2)cc1 (stereo not drawn) | MCF-10A | cell viability | – | 72 (unit not given) | – | IC50 | 19.2 ± 3.89 µM |
| COC1=CC(c2cc3ccccc3[nH]2)=N/C1=C\c1[nH]c(C)cc1C | pigeon embryo fibroblasts | – | – | – | – | CC50 | 15 µM |
| CC(C)C[C@H](NC(=O)[C@H](Cc1ccccc1)NC(=O)c1cnccn1)B(O)O | CHP-212 parental | SRB | – | 0.04115 µM | – | viability | 96% and 97.3% |
| Oc1c(I)cc(Cl)c2cccnc12 | pigeon embryo fibroblasts | – | – | – | – | CC50 | 40 µM |
| COc1cccc(-c2n[nH]c(SCc3ccccn3)n2)c1OC | CHO-WBL | – | – | 31 µg/mL, 19 h, without S9 | – | micronuclei per binucleated cell | 0.014 |
